Published values pooled from the literature.
“And” joins repeats or separate records; there may be more than shown. ± gives the spread as reported.
Sequence of UniProt P29320 (whole entry, looked up): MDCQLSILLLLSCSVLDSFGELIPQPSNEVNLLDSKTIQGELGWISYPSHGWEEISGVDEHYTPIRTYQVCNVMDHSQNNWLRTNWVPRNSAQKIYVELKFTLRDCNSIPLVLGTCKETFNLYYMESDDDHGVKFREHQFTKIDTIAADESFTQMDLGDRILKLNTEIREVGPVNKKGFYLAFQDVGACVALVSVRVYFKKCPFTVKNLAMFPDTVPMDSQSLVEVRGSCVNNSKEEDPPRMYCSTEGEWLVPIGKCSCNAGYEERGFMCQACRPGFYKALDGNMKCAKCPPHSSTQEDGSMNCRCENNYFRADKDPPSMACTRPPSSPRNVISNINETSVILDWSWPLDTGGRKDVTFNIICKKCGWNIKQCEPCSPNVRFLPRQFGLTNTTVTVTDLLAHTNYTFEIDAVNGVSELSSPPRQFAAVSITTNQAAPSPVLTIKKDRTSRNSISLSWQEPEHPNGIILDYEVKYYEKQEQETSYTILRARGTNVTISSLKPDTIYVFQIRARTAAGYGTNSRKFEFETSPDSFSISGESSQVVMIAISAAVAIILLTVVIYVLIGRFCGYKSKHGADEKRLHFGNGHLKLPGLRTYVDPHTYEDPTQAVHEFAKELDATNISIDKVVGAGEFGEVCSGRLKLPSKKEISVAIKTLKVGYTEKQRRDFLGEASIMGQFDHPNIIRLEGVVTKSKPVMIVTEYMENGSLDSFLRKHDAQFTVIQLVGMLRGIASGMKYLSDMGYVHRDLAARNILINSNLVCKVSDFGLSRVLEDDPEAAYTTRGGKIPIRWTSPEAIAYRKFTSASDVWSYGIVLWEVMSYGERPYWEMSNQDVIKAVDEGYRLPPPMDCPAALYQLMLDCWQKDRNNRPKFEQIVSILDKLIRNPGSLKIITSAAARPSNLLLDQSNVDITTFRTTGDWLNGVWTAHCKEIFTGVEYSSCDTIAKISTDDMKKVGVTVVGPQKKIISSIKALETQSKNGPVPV

Structure (SMILES)	target or system	test	test system	setting	scale	endpoint	result
Cc1cc(C(=O)NC(C)(C)COc2cccc3c2C(N)=NS(=O)(=O)N3)cc(C)n1	Salmonella typhimurium	Ames test, confirmatory	TA100	100 µg/plate	relative to: solvent control	revertant ratio	0.9
Cc1c(Cl)c(=O)oc2cc(OCCCC[Se]C#N)ccc12	Caenorhabditis elegans		N2 Bristol, NGM with E. coli OP50	10 µM, 24 h		embryonic lethality	1.94%
OC(CCN1CC=C(c2ccc(F)cc2)CC1)c1ccc(F)c2ccccc12 (stereo not shown)	Salmonella typhimurium	genotoxicity, SOS/umu test	TA1535/pSK1002	0.002 mg/mL, 4 h, without S9, lower range		induction factor	0.8
CC(C)C[C@@H]1NC(=O)[C@H](CC(C)C)NC(=O)[C@H](Cc2c[nH]c3ccccc23)NC(=O)[C@H](CO)NC(=O)[C@H](Cc2c[nH]c3ccccc23)NC(=O)[C@@H]2CCCN2C(=O)[C@H](CC(C)C)NC(=O)[C@H](Cc2c[nH]cn2)NC(=O)[C@@H]2CCCN2C(=O)[C@H](CC(N)=O)NC(=O)[C@H](C)NC(=O)[C@H](Cc2ccc(O)cc2)NC(=O)[C@H](CS)NC(=O)[C@H](CCCCNC(=O)CN2CCN(CC(=O)O)CCN(CC(=O)O)CCN(CC(=O)O)CC2)NC1=O [lutetium-177 labelled]			Balb/c mouse, female, 4T1 tumour, spleen	intravenous, 3.7 MBq, 72 h		tissue uptake	0.01 %ID
O=[N+]([O-])c1ccc(N2CCN(CCC(O)c3ccc(F)cc3)CC2)c(C(F)(F)F)c1 (stereo not shown)	Salmonella typhimurium	genotoxicity, SOS/umu test	TA1535/pSK1002	0.004 mg/mL, 4 h, without S9, full range		induction factor	1.1
[Cl-].[Cl-].[Pt+2].[Ru+2].c1ccc(-c2nccnc2-c2ccccn2)nc1.c1cnc2c(c1)ccc1cccnc12.c1cnc2c(c1)ccc1cccnc12	Danio rerio		embryos	15 µM, 48 h		hatching rate	40 ± 4.1%
CC[C@H](C)[C@H](NC(=O)[C@@H]1CCCN1C(=O)CNC(=O)[C@@H]1CCCN1C(=O)[C@H](Cc1ccc(O)cc1)NC(=O)[C@H](CC(C)C)NC(=O)[C@@H](N)CCCCN)C(=O)N[C@@H](CC(C)C)C(=O)N[C@@H](CCSC)C(=O)O	HLA class I histocompatibility antigen, A alpha chain, allele A*24:02 (Homo sapiens, UniProt P04439)	binding				IC50	11 µM
O=[N+]([O-])c1ccc(N2CCC(NCCC(O)c3ccc(F)c4ccccc34)CC2)c(C(F)(F)F)c1 (stereo not shown)	Salmonella typhimurium	SOS/umu test	TA1535/pSK1002, TGA medium	0.000122 mg/mL, 4 h, without S9		survival	109%
O=NN1CCN(C2CCCC2)CC1	Escherichia coli	mutagenicity, Ames plate incorporation	WP2 uvrA pKM101	2500 µg/plate, 3 d, without S9, methanol		revertant colonies per plate	90 ± 16
CC[C@H](C)[C@H](NC(=O)[C@H](Cc1ccccc1)NC(=O)[C@H](CCC(=O)O)NC(=O)[C@H](CCCNC(=N)N)NC(=O)[C@H](C)NC(=O)[C@H](C)NC(=O)[C@H](CCC(N)=O)NC(=O)[C@H](CCC(=O)O)NC(=O)[C@H](CCC(=O)O)NC(=O)[C@H](CC(C)C)NC(=O)[C@H](Cc1ccc(O)cc1)NC(=O)[C@H](CO)NC(=O)[C@H](CO)NC(=O)[C@@H](NC(=O)[C@H](CC(=O)O)NC(=O)[C@H](CO)NC(=O)[C@@H](NC(=O)[C@H](Cc1ccccc1)NC(=O)[C@@H](NC(=O)CNC(=O)[C@H](CCC(=O)O)NC(=O)[C@H](C)NC(=O)CCc1c[nH]cn1)[C@@H](C)O)[C@@H](C)O)C(C)C)C(=O)N[C@@H](C)C(=O)N[C@@H](Cc1c[nH]c2ccccc12)C(=O)N[C@@H](CC(C)C)C(=O)N[C@H](C(=O)N[C@@H](CCCNC(=N)N)C(=O)NCC(=O)N[C@@H](CCCNC(=N)N)C(=O)N[C@@H](CCCCNC(=O)COCCOCCNC(=O)COCCOCCNC(=O)CC[C@H](NC(=O)CCCCCCCCCCCCCCCCC(=O)O)C(=O)O)C(=O)NCC(=O)NCC(=O)N[C@@H](CO)C(=O)N[C@@H](CCCCNc1c(NCCCCCN(O)C(=O)CCC(=O)NCCCCCN(O)C(=O)CCC(=O)NCCCCCN(O)C(C)=O)c(=O)c1=O)C(=O)O)C(C)C [zirconium-89 labelled]			rat, blood	iv, 3 nmol/kg, 168 h, ex vivo		tissue uptake	0.03 %ID/g
CN(N=O)c1ccc(F)cc1	Escherichia coli	mutagenicity, Ames plate incorporation	WP2 uvrA pKM101	1500 µg/plate, 3 d, without S9, methanol		revertant colonies per plate	84.3 ± 6
CC(=O)N1CCC(C(=O)N2CCN3C(=O)c4cc(-c5ccccc5)ccc4NC(=O)C3C2)CC1 (stereo not shown)	Salmonella typhimurium		TA98	5.0 µg/plate, with: rat liver S9	relative to: vehicle	fold increase in revertants	0.8
CC[C@H](C)[C@H](NC(=O)[C@H](CO)NC(=O)[C@H](Cc1ccc(O)cc1)NC(=O)[C@@H](NC(=O)[C@@H](N)CCCCN)C(C)C)C(=O)N1CCC[C@H]1C(=O)N[C@@H](Cc1c[nH]cn1)C(=O)N[C@@H](CCC(N)=O)C(=O)N[C@@H](CCSC)C(=O)O	HLA class I histocompatibility antigen, A alpha chain, allele A*02:01 (Homo sapiens, UniProt P04439)	binding				IC50	14.6 µM
CNC(=O)c1c(N(C)N=O)ncn1C	Escherichia coli	plate incorporation	WP2uvrA pKM101, water	1500 µg/plate, without S9		revertant colonies per plate	105 ± 7
CC(C)C[C@H](NC(=O)[C@H](Cc1c[nH]cn1)NC(=O)[C@H](Cc1c[nH]cn1)NC(=O)[C@H](Cc1ccc(O)cc1)NC(=O)[C@@H](N)CS)C(=O)N[C@H](C(=O)N[C@@H](CC(C)C)C(=O)N[C@H](C(=O)N[C@H](C(=O)NCC(=O)NCC(=O)N[C@@H](CO)C(=O)O)C(C)C)[C@@H](C)O)C(C)C	Epstein-Barr virus		B-NDG humanized mouse, EBV-infected	20 mg/kg, day 42		body weight	23 g and 21.9 g and 21.6 g
COc1cccc(-c2n[nH]c(SCc3ccccn3)n2)c1OC	Salmonella typhimurium	Ames test, plate incorporation	TA98	1.0 mg/plate, with rat liver S9		revertant colonies per plate	25
CN(CC(C)(C)C)N=O	Escherichia coli	mutagenicity, Ames plate incorporation	WP2 uvrA pKM101	2500 µg/plate, without S9, methanol		revertant colonies per plate	195 ± 18
Fc1ccc(C2=CCNCC2)cc1	Salmonella typhimurium	genotoxicity, SOS/umu test	TA1535/pSK1002	0.004 mg/mL, 4 h, with S9, full range		induction factor	1.1
C[C@H]1CN(c2n[nH]c3nc(N[C@H]4CC[C@H](NS(=O)(=O)CCC(F)(F)F)CC4)ncc23)CCO1	EPHA3 (Homo sapiens, UniProt P29320)	inhibitor, Kinobeads competition profiling		0.16 µM	relative to: vehicle	relative abundance	1.11

Excerpt of the above:
Structure (SMILES)	target or system	test	test system	setting	scale	endpoint	result
CC[C@H](C)[C@H](NC(=O)[C@H](Cc1ccccc1)NC(=O)[C@H](CCC(=O)O)NC(=O)[C@H](CCCNC(=N)N)NC(=O)[C@H](C)NC(=O)[C@H](C)NC(=O)[C@H](CCC(N)=O)NC(=O)[C@H](CCC(=O)O)NC(=O)[C@H](CCC(=O)O)NC(=O)[C@H](CC(C)C)NC(=O)[C@H](Cc1ccc(O)cc1)NC(=O)[C@H](CO)NC(=O)[C@H](CO)NC(=O)[C@@H](NC(=O)[C@H](CC(=O)O)NC(=O)[C@H](CO)NC(=O)[C@@H](NC(=O)[C@H](Cc1ccccc1)NC(=O)[C@@H](NC(=O)CNC(=O)[C@H](CCC(=O)O)NC(=O)[C@H](C)NC(=O)CCc1c[nH]cn1)[C@@H](C)O)[C@@H](C)O)C(C)C)C(=O)N[C@@H](C)C(=O)N[C@@H](Cc1c[nH]c2ccccc12)C(=O)N[C@@H](CC(C)C)C(=O)N[C@H](C(=O)N[C@@H](CCCNC(=N)N)C(=O)NCC(=O)N[C@@H](CCCNC(=N)N)C(=O)N[C@@H](CCCCNC(=O)COCCOCCNC(=O)COCCOCCNC(=O)CC[C@H](NC(=O)CCCCCCCCCCCCCCCCC(=O)O)C(=O)O)C(=O)NCC(=O)NCC(=O)N[C@@H](CO)C(=O)N[C@@H](CCCCNc1c(NCCCCCN(O)C(=O)CCC(=O)NCCCCCN(O)C(=O)CCC(=O)NCCCCCN(O)C(C)=O)c(=O)c1=O)C(=O)O)C(C)C [zirconium-89 labelled]			rat, blood	iv, 3 nmol/kg, 168 h, ex vivo		tissue uptake	0.03 %ID/g
